Results collected from several papers.
Every numbered part comes from another study and shows a few of its results, in no order.

Set 1
Target: Interferon regulatory factor 5, full length, phosphomimetic (IRF5, Homo sapiens, UniProt Q13568-2, residues 1-514, S451D/S453D/S456D/S462D)
Technique: protein-binding microarray
Molecule type: double-stranded DNA, one strand shown
Matrix: in vitro
Concentration: 940 nM top
Notes: 60-bp whole probe
Added: salmon DNA 0.4 mg/ml
Baseline: random background probes
Reading: higher = stronger binding
All sequences stand within: GCCTAGCAC … GTCTTGATTCGCTTGACGCTGCTG
Strand | fitted relative affinity
TTAGGACTGCTTAGCCTTTAGTGCTAG | -0.663 z-score
TTAGGTTTCGGTATCCGTTAGTGCTAG | 15.6 z-score
TTTGATATCAGTCTCGATTAGTGCTAG | 3.57 z-score
TGGGATTTTTAGTTAGAAAAGTGCTAG | -0.0153 z-score
ACCTGTATATCTTCAGCGGGGTGCTAG | -0.0715 z-score
GACGGTCTCCTTTTCCTGTCGTGCTAG | 2.1 z-score
TTAGGTATCCTTCTCCTTTCGTGCTAG | 0.77 z-score
GACGATATCGGGGATCGAGACGTGCTA | 0.101 z-score
TCACATATACACTGTGTAACTGTGCTA | 0.122 z-score
TTAGGTTTCGTTCTCGGTTAGTGCTAG | 10.8 z-score
TTAGGTATCCGGTATCGGTTAGTGCTA | 4.35 z-score
GACGGTCTCGGTCTCGGGCCGTGCTAG | 3.57 z-score
TATTTTCCTTTAAACTTTTAGTGCTAG | 1.18 z-score
TTAGGTCTCCTACGGCTTTAGTGCTAG | -0.345 z-score
GACGGACTGGGGTTTCGGGAGGTGCTA | 1.68 z-score
GACGGACTGCTTCTACTGACGTGCTAG | -0.188 z-score
TCATTTTTCCGAGTGAGACTGTGCTAG | 0.515 z-score
GACGGTATTGACACTGGGGACGTGCTA | 0.134 z-score

Set 2
Target: RNA binding protein fox-1 homolog 2, RRM domain, GST-SBP tag (RBFOX2, Homo sapiens, UniProt O43251-10, residues 100-194)
Technique: RNA Bind-n-Seq
Molecule type: RNA
Matrix: in vitro
Concentration: 365 nM
Notes: natural RNA segment, single round, ends assumed
Baseline: no-protein control
Reading: higher = stronger binding
All sequences stand within: GGGAGUUCUACAGUCCGACGAUC … UGGAAUUCUCGGGUGCCAA
Construct (chain): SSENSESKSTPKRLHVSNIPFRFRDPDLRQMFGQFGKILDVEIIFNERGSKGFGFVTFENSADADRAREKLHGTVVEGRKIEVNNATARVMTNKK
Strand | RBNS enrichment (R)
AUUUGUGUUUUUGGAGUCCUCAGCUCACAUGUCUUGUUCCUCCUUCAGCACAAGCUAGGGGAGAUCCUACCAACACUGAUAGGUCAGUCAUUGAUGGCAAUUUGAAUGUG | 1.96
UAUUUAAAUAUCCACUGUGUGUGUCACAAAGUUGUUCUUUUGAGUGCAAUAAAGAUAGCUUAACACAUCUCCAGAGCAGCAGCCGAUUUGUCUCUUUGAAGGGGGUAUUU | 0.754
GACAAGGGCGUCCCCAAGAGACACCCUCACCGUACCAAAGAGCUGAGCUGCUUCUGGGUCUCACGGACCUCCUUGCAGCCCCCUUGCCCUUUCCUUGCCUUGUGUCCGGA | 0.343
UCCAAAUUCCAGGAAGGUGCAGAGAUGCCUCUGAGCCCCGAGGAAAAGAAUCCCUUGAGCAUCUCCCUAGGAGUCCACCCCCUGGAUUCCUUUACUCAAGGGUUUGGGGA | 0.214
GAGACGAAGCUGUGUCAUCAAGAGCUCAGUGGGUGCGAGGAAAGUAUGAUCCAGCGCUCAGCCUUCGCUCUAGGAUGCUGUGGUCCCCAUUCCCAGUUCCUCCAGUGCCA | 2.09
UUGUGACCAAAUGGGCCUCAAAGAUUCAGAUUGAAACAAACAAAAAGCUUUUGAUGGAAAAUAUGUGGGUGGAUAGUAUAUUUCUAUGGGUGGGUCUAAUUUGGUAACGG | 1.19
AGAAUGUCUCCCAGCCUCAGUUUCCCUAUUUGUAAAAUGGAAAUAAUGGUAGCUACCUCAAACCUCAUUACGAAUUCAAUGAGUUAAACUUGAAAAGACUUAUUACAGUA | 0.418
AAUAAAGGAAAGAGAAUAUUUGGUUACUCAGAUCCAUUUUUAACCUCUGGUGCUGUAUAAAGGGAAUAUUAAACUAGAUGUAAAUCAAAGUAUAUGUUUGGCUCAUUUGA | 0.834

Set 3
Target: RING finger protein unkempt homolog, zinc fingers 1-6, GST-SBP tag (UNK, Homo sapiens, UniProt Q9C0B0, residues 30-357)
Technique: RNA Bind-n-Seq
Molecule type: RNA
Matrix: in vitro
Concentration: not given
Notes: RNA with constant flanks, human-mouse chimeric sites, ends assumed
Baseline: input RNA pool
Reading: higher = stronger binding
All sequences stand within: GGGAGUUCUACAGUCCGACGAUC … CAACAGAGGAUUGAGCAUCA
Residues (chain): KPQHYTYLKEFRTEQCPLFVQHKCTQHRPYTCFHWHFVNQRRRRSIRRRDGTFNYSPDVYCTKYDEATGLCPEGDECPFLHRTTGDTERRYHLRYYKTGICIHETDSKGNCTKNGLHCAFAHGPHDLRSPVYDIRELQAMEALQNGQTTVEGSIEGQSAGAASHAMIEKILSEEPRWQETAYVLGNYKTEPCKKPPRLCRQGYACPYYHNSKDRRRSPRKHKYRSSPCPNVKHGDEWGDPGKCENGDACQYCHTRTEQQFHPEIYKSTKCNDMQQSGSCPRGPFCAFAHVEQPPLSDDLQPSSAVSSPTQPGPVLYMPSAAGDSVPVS
Strand | bound/input enrichment
AGAGAAAUGAGAAAGAAUCUUACACAAGAAGAGAUGCAAAGAAUGUCUACUAGAGUCCUUUUAGCCACUCUUUCCAUUCCUAUUACUCCUGAGCGAACUGAUAUUGCUCGACUUCUGGAU | 0.353 ratio
GUCAACAGCUGCCUCAAUCCCAUUCUCUACGCCUUCCUGGAUGAGAACUUCAAGGCCUGCUUCCGCAAGUUCUGCUGUGCAUCUGCCCUGCGCCGGGACGUGCAGGUUUCUGAUCGUGUG | 0.337 ratio
GUGACUGGUGUUAAGAUUUACCCUCAGCAAAGAAGUGCAGUAGUCACCAUAAUUCCAUCUGUGGUGAGUGCCAGUCAGAUUGUGGAGCUGGUCCCAGACCUCAGUUUAGAUACUGGGACU | 0.413 ratio
UAAGUCCUGUGCCAGCACUUCGCUCAUUAUAUUUUAAAUUCUGGACCAAUAGUGUUUGUUUCCUGAUUUUUGUAUUCAAUACUUUGCCUAGUAUGUAACUCACUCUUACUGAUAAUAAAA | 1.54 ratio
AUGGAAAAGGAUUCUCUGCCCCGCUUUGUGCGCUCUGAAUUUUAUAAGGAGCUAAUCAAGUAGUCAUCUGGUCAGGCUUCCAAAAGUUGCCCUGUGAGUUGAGUUACAUAAUAACCCGCA | 0.15 ratio
UUGCCUGAGAACGAGGAUGAAUUGGAGAGCACCAACAGGCGCUACACCAAGAGGGACUGCAGCACUUUCCUCAGAACUAGUGAGACGGGCAUCGUGGACCAGGUCAUGGUCACUCUCAAC | 0.181 ratio
UAAAUCCUGUGCCAGCAAUUUAUCCCAAAAGUUUUAAAUUCUGGACCAAUAGUGUUUGUUUCCUGAUUAUUGUAUCCAAUACUUUGCCUAGUAUGUAACUCACUCUUACUGAUAAUAAAA | 2 ratio
GUGCCCUUCUCGCUGCUGCGGAGCCCGAGCUGGGAACACCCCUUCCGCUGGUACCCUCCGCAUAGCCGCCUCUUCGAUCAAGCUUUCGGGGUGCCCCGGUUGCCCGAUGAGUGGUCGCAG | 0.0726 ratio

Set 4
Target: Ras GTPase-activating protein-binding protein 1, RRM domain (G3BP1, Homo sapiens, UniProt Q13283)
UniProt Q13283, sequence (whole entry, looked up): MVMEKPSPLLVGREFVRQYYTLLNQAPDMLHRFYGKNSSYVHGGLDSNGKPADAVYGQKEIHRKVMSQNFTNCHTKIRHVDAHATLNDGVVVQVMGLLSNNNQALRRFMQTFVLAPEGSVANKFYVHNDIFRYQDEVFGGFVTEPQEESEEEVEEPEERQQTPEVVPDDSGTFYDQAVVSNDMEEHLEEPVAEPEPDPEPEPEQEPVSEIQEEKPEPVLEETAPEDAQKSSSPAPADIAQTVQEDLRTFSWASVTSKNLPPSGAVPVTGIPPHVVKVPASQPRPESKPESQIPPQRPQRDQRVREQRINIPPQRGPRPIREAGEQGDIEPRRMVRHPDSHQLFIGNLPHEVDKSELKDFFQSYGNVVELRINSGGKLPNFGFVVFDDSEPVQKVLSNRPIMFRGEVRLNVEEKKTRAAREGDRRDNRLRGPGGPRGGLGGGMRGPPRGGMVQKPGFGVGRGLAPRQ
Technique: RNA Bind-n-Seq
Molecule type: RNA
Matrix: in vitro
Concentration: 1 µM
Notes: whole 134-nt RNA, ends assumed
Added: 150 mM KCl
Baseline: input library
Reading: higher = stronger binding
All sequences stand within: GGGAGUUCUACAGUCCGACGAUC … UGGAAUUCUCGGGUGUCAAGG
Strand | log2 enrichment
UUACGAUUAUAUCACCCGGACACACAUCAUGCUUAAGAUUCAACUGGGAGCAUACCAGGGAUGCUCUCUAACGUAAUCAAGGGAAGGUUC | -0.339
AGUCCUGUGCUACACAUCGUAUGUACCGAAUCGGGUUUUGGGGUUUUGGGUUUUGGGGAAAGUAUUAUGUUACGCCGUUCGGAUCUGCAC | 0.324
CCUCAAGUCCUGUGCUACACAUCGUAUGUACCGAAUCGGCGGGGCGGGGCGGGAAAGUAUUAUGUUACGCCGUUCGGAUCUGCACUUCCA | 0.0428
CAAGUCCUGUGCUACACAUCGUAUGUACCGAAUCGGGUUUGGUUUGGGGUUUGGGAAAGUAUUAUGUUACGCCGUUCGGAUCUGCACUUC | 0.128
ACCAUGCAGGUGGGCAUCUUUGGGAAGUGGGGCAAGGGGGGGAUAGGGAGGGGGGUAACACUUUGGGAACAGGUGGUCCCAAAUCGUUUC | -0.484
UGAGAGGUGGAUUUUGUUUAUUUUUUUAGCUCAUUUCCAGGGGUGGGAAUUUUUUUUUAAUAUGUGUCAUGAAUAAAGUUGUUUUUGAAA | 1.25
UCAAGUCCUGUGCUACACAUCGUAUGUACCGAAUCGGGUGGGAGGGUUUUUGGGAAAGUAUUAUGUUACGCCGUUCGGAUCUGCACUUCC | 0.579
UCAAGUCCUGUGCUACACAUCGUAUGUACCGAAUCGGGUGGGAGGGAAAAAGGGAAAGUAUUAUGUUACGCCGUUCGGAUCUGCACUUCC | 0.581
CAAGUCCUGUGCUACACAUCGUAUGUACCGAAUCGGGAAAGGGUGGGUUUUUGGGAAAGUAUUAUGUUACGCCGUUCGGAUCUGCACUUC | 0.789

Some of these lines once more (set 4):
Strand | log2 enrichment
UUACGAUUAUAUCACCCGGACACACAUCAUGCUUAAGAUUCAACUGGGAGCAUACCAGGGAUGCUCUCUAACGUAAUCAAGGGAAGGUUC | -0.339
CCUCAAGUCCUGUGCUACACAUCGUAUGUACCGAAUCGGCGGGGCGGGGCGGGAAAGUAUUAUGUUACGCCGUUCGGAUCUGCACUUCCA | 0.0428
UGAGAGGUGGAUUUUGUUUAUUUUUUUAGCUCAUUUCCAGGGGUGGGAAUUUUUUUUUAAUAUGUGUCAUGAAUAAAGUUGUUUUUGAAA | 1.25
